Measured values from different studies.
A part holds a random share of what one study measured. Substitutions count along the parent as printed.

Set 1
Target: JDP2, bZIP domain (human)
Technique: DHFR protein complementation
Sample: yeast
Notes: single substitutions, most at no-binding floor
Relative to: wild-type JUN-FOS pair
Direction: higher = stronger binding
Starting sequence: JUN, bZIP domain (human); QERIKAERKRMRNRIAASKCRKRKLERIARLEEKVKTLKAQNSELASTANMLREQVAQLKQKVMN; partner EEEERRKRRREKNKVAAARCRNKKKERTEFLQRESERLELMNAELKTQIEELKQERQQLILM
| Variant | binding fitness [natural log] |
| --- | --- |
| N42I | -0.108 |
| E54D | 0.199 |
| N42R | 0.161 |
| E33G | 0.251 |
| A40V | 0.273 |
| E44M | 0.24 |
| V56Y | -0.441 |
| R30P | 0.365 |
| A46T | 0.357 |
| E32G | 0.182 |
| Q41K | 0.264 |
| N42L | 0.114 |
| L31H | 0.1 |
| N42W | 0.185 |
| A57G | 0.328 |
| S47P | -0.171 |

Set 2
Target: RNA binding protein fox-1 homolog 2, RRM domain, GST-SBP tag (RBFOX2, Homo sapiens, UniProt O43251-10, residues 100-194)
Technique: RNA Bind-n-Seq
Molecule type: RNA
Sample: in vitro
Concentration: 365 nM
Notes: natural RNA segment, single round, ends assumed
Relative to: no-protein control
Direction: higher = stronger binding
Shared flanks, not repeated: GGGAGUUCUACAGUCCGACGAUC … UGGAAUUCUCGGGUGCCAA
Target sequence (chain): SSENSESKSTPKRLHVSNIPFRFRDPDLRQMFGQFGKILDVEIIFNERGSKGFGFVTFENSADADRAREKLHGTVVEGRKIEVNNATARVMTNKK
| Oligonucleotide | RBNS enrichment (R) |
| --- | --- |
| GUAUAAUUGAGUUUUCAGUGGGGCAGUCAUUAUCCAGGUAAUCCAAGAUAUUUUAAAAUCUGUCACGUAGAACUUGGAUGUACCUGCCCCCAAUCCAUGAACCAAGACCA | 0.29 |
| AGAGAGAGGGGUGUUUGUGUGUAUAUAUAUAUGCCUUUGUGUAUACACUUAUCAAAGCUAUUUUCUUAUGAAAACGUCCCUCUCUCCAUACCAUCAGUUUCUCAGUUCCA | 0.376 |
| CUGAUAGUUUCUUUCUUUCAUAUCACAUGUAUAGAGAAAUAAUUAUAUCAGAAACUCACAAACCUAGACAUGGAAAAACAGAUUACUGUCUAUUGUCAGCAUCAUUUUCA | 0.283 |
| GUGGGCGGGCAGGGCAGGCCAAGACCCUGCCGCCCAGUGGACCCCGGCCUACCCACCCCACUCUACAGCCCCUCCAACCUCAAGGCACUUCGGGGACUCAGACGGGGGAG | 0.39 |
| AGAGCCACCAGCACUUCAGAGCCAGCCCUCAGCCCGGGUGGCCUGGAGAGGGCCAGUGCUGCCACUGGUGUGGGGGUCAUUCUUGUGCACCCCCUACUGUGUGCUCCUCU | 0.369 |
| CACACAGUGAGAUGCACUCAAAGGACCACGUGUUAUCUGGUAAUCCAAAUUGGUUCCCCUGCUCCCCCCCUCCAACCUCUCAAAGACAGAAUGUGUCUCAGAGAUUUCCU | 1.91 |
| CCUAGUUAUUAUACAUAUUAAUUUUUAAGGUAUACAUUUAAAUUACACAAUUGUUCAUUGUGGUUUGUAUCCCAGAAUGUGUUGUGUUUUUUAAAAGAUGCAUAAUAGCU | 0.593 |
| UACCUGCUGAGGGCGCUGGCUCUGCAGAUCAGAACAACGGAGGAUAGCUUUGUGCCUGGACCCAGAGAGUGUGGGACUCCCCGCUUCAUCCCCACCGUCCCACUCCACAG | 1.3 |
| UAGACCGGAGCGCAUGCUGGCUAUUACUGAACACGGCCAUACUUGAGAAACAAAGUCUACUGUGUAUUUGACAGCUAUUUAUCACCAAGACAACUGUAAAGAAAUCAAGC | 8.31 |
| CCUGCUUCCUAUCUCUGGAGGAGCUUCCCCACGCGGGAGAGCAAUGGCAGAGGAUCCACACAUCCUGAACAGCUGCUUUAUGAGACACCUUUACUUUAUCUUGGCUUAAG | 0.889 |
| UCAUAUGCUAGUACUAUGUCAAAGCAACAGUCCACACUUUGUCCAAUGGUUUUUUCACUGCCUGACCUUUAAAAGGCCAUCGAUAUUCUUUGCUCUUGCCAAAAUUGCAC | 2.87 |
| GGGUGGCUUCACUCCGCCCAUUCCAAAGAGGGCUCUCCCUCCACACUGCAGCCGGGAGCCUCUGCUGUCCUUCCCAGCCGCCUCUGCUCCUCGGGCUCAUCACCGGUUCU | 0.38 |

Set 3
Target: Centromere-binding protein 1, full length, His-tagged (CBF1, Saccharomyces cerevisiae, UniProt P17106, residues 1-351)
Sequence of UniProt P17106 (whole entry, looked up): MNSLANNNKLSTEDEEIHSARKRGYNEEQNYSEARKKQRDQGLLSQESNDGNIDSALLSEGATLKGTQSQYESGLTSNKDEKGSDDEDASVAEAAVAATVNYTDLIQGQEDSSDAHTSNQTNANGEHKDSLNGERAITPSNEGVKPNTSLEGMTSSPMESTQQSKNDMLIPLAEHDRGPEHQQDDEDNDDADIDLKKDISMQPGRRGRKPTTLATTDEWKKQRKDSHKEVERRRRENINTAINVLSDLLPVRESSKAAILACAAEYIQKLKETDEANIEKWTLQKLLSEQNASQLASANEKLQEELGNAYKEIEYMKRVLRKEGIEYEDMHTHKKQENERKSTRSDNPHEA
Technique: competition protein-binding microarray
Molecule type: double-stranded DNA, one strand shown
Sample: in vitro
Concentration: 2 µM
Notes: whole 60-bp probe, lowest competitor level
With: Pho4 competitor, 0.05 µM
Direction: higher = stronger binding
Shared flanks, not repeated: … GTCTTGATTCGCTTGACGCTGCTG
| Oligonucleotide | fluorescence intensity [a.u.] |
| --- | --- |
| CATACCCAACCTTTTCACGTGGCATAAGATATTTGT | 916 |
| CATACCCAACCTTCACACGTGTTTTAAGATATTTGT | 1190 |
| TGATGACCAAGTTGCCACGTGTCCTCTAGTGGCAGG | 1350 |
| CTAACGAAGGTTTGGTGCGTGGGTGACAAGCCAAGT | 70.1 |
| CTAACGAAGGTTTGCAGAGTGGGTGACAAGCCAAGT | 66.6 |
| CTTTCCCGATCTTTTCACGTGGCATTAGCACATTTG | 742 |
| AAAGCGGTAATTTGGAGTGTGGGTGCAGATATCTAT | 67 |
| ACACCATATGGTGCACCCGTGCTGTTTGTCACTGCC | 101 |
| CGTCCTAGTGATTGTCACCCAACTTCCATGAGGAAG | 91.1 |
| TGAGCGCTGAAGAAACACATGACGACTTGAAAAAAG | 406 |
| CTAACGAAGGTTTGTCACATTACTTACAAGCCAAGT | 118 |
| CTAACGAAGGTTTTTCACGTGACCTACAAGCCAAGT | 8670 |
| TTTCTTTTCCACTATTACGTGGTGATTCCAGTAGCG | 88.5 |
| TCTAGTGATACCCATCACGTGCCAGTGATACTTGCG | 6440 |
| CTAACGAAGGTTTGAGTTGTGGGTGACAAGCCAAGT | 71.7 |
| CTTTCCCGATCTTGCGTTGTGGGTGTAGCACATTTG | 68.9 |
| CTAACGAAGGTTTGCGCGGTGGGTGACAAGCCAAGT | 59.6 |
| AGAGGTTCCTCTCGCCATGAGGTGAGTCAGCCACTG | 60.3 |
| GCTGAAAAGCGCGTTCTCGTGCGATGCTTTCAGTGT | 71.9 |
| CTAACGAAGGTTTTTCACGTGAGTTACAAGCCAAGT | 860 |

Set 4
Target: Histone acetyltransferase KAT6A, both winged helices, GST fusion (KAT6A, Homo sapiens, UniProt Q92794, residues 1-181)
Technique: protein binding microarray
Molecule type: double-stranded DNA, one strand shown
Sample: in vitro
Concentration: not given
Notes: 8-mer, flanks averaged, mean of 2 arrays, mostly near background
Relative to: not given
Direction: higher = stronger binding
Residues (chain): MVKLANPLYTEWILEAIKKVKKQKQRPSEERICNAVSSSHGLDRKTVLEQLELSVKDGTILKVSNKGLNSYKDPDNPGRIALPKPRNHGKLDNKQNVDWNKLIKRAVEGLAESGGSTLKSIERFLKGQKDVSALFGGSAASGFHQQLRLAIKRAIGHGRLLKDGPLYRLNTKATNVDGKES
| Oligonucleotide | E-score |
| --- | --- |
| AAGGTGCT | -0.221 |
| ATGTGTGG | -0.164 |
| GGGGGCGA | -0.0128 |
| CAACATGC | 0.145 |
| AACCTGGT | -0.133 |
| GCGCCTCC | 0.211 |
| CCCGAATC | 0.000255 |
| ACACTGAG | -0.0349 |
| AATCTGAA | -0.0468 |
| CTATCCTC | -0.201 |
| CGAGTCAG | 0.0347 |
| CGCCGCCC | 0.284 |
| TCGTCAAA | -0.027 |
| GACTCCAA | -0.0885 |
| AGGTCTTG | -0.137 |
| CCCCCTCA | -0.23 |
| ACTGGCAA | -0.141 |
| TATACGGA | 0.157 |
| CTTAATCA | -0.111 |
| CATTCGGG | 0.112 |
| AGTCCCAC | -0.254 |
| CTCCGATA | 0.084 |
| AGTTCCAC | -0.112 |
| GTATTCGA | -0.107 |
| GCTTCAAA | -0.00284 |

A few entries again (set 1):
| Variant | binding fitness [natural log] |
| --- | --- |
| E33G | 0.251 |
| A40V | 0.273 |
| E44M | 0.24 |
| V56Y | -0.441 |
| R30P | 0.365 |
| A46T | 0.357 |
| E32G | 0.182 |
